Assay results gathered from unrelated publications.
Numbered parts are unrelated; each lists some results of a single study. Substitutions count along the parent as printed.
UniProt Q9XFM0, sequence (whole entry, looked up): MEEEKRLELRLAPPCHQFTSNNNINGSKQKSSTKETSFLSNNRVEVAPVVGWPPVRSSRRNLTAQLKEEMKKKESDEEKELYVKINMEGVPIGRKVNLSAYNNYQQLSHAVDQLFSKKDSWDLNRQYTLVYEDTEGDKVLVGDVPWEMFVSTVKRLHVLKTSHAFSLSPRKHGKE
UniProt Q9C7I9, sequence (whole entry, looked up): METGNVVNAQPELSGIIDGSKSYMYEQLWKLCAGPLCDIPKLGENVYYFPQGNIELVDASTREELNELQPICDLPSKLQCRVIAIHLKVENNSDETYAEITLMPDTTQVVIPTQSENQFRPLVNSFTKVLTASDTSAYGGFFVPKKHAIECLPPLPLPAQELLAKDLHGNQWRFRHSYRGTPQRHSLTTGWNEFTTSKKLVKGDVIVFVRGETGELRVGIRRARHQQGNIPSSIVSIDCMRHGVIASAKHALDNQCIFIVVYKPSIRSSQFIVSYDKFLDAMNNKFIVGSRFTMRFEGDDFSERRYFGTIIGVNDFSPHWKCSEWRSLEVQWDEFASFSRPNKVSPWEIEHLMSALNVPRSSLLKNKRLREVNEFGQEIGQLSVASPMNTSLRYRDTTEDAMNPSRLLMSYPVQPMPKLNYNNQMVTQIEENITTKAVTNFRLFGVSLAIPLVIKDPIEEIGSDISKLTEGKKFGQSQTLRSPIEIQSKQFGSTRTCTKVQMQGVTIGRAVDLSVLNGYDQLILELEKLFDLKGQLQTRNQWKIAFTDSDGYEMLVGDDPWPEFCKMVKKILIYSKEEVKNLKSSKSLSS
UniProt O24407, sequence (whole entry, looked up): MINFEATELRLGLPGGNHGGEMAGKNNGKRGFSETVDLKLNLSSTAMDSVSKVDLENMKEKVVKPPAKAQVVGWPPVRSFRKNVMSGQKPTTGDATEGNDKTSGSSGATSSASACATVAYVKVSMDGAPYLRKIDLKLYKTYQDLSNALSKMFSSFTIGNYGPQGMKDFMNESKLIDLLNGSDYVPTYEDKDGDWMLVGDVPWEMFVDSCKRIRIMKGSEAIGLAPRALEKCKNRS
UniProt Q8H174, sequence (whole entry, looked up): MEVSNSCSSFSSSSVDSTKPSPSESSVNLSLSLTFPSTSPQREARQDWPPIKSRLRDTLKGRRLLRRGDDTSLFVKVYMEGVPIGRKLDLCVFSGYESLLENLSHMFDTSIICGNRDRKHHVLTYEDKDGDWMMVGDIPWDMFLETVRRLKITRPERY
UniProt P93022, sequence (whole entry, looked up): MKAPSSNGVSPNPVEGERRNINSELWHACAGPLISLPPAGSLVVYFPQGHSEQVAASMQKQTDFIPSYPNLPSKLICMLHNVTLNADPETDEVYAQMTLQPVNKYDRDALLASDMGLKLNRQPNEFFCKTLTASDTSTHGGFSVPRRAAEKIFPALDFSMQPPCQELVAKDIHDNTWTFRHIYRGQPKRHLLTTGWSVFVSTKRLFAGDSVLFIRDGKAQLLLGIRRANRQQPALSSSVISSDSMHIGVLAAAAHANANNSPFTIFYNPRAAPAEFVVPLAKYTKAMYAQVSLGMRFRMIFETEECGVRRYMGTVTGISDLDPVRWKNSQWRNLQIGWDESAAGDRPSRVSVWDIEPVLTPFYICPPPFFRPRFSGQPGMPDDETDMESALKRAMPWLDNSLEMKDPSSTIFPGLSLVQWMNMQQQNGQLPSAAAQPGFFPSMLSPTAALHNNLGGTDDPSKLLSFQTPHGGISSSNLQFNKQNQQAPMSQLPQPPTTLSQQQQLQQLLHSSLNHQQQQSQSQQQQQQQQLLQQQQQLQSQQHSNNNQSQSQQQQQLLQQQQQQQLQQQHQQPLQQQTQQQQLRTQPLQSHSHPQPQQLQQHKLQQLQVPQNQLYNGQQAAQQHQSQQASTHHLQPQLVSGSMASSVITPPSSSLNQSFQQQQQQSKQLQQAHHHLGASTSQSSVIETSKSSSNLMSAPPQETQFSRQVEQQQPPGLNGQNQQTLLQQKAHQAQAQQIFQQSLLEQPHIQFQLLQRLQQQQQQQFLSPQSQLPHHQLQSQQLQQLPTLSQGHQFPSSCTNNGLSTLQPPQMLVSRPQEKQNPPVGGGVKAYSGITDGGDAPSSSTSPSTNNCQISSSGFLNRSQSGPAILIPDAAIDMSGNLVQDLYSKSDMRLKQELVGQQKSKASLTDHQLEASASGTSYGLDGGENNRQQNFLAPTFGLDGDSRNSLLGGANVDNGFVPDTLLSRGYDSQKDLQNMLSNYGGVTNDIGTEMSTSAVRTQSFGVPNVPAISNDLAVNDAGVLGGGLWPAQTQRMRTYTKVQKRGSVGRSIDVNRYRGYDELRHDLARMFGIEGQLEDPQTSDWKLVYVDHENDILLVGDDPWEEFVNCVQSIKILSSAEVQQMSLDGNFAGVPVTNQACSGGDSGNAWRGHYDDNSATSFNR
UniProt Q8RYC8, sequence (whole entry, looked up): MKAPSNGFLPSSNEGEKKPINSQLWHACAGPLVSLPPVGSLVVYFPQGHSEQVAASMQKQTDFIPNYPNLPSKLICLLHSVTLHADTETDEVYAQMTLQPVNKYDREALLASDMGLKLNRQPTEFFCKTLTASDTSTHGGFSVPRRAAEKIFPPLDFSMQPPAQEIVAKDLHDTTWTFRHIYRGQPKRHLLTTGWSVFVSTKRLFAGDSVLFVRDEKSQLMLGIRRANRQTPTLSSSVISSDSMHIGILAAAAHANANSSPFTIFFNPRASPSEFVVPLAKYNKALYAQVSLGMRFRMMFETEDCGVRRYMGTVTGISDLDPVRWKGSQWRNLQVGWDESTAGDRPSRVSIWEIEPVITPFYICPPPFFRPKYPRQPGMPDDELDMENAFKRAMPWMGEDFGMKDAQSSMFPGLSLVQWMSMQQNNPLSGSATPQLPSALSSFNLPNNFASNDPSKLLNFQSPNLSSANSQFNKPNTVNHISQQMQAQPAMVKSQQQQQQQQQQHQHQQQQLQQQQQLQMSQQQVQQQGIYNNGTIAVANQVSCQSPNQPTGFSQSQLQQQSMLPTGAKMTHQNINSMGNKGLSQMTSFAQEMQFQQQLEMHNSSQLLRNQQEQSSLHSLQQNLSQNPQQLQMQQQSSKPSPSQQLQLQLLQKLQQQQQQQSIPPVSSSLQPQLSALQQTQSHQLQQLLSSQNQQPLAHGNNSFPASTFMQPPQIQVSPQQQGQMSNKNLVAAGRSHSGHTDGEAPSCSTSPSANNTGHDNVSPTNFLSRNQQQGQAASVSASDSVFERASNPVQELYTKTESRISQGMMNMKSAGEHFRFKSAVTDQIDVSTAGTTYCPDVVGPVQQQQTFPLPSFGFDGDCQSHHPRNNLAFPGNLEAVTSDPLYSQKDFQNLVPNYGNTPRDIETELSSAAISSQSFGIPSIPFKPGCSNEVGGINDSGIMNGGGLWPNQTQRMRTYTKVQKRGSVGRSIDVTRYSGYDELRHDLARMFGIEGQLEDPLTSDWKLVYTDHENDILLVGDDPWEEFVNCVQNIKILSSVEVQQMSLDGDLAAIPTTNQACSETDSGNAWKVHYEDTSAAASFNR
UniProt Q38830, sequence (whole entry, looked up): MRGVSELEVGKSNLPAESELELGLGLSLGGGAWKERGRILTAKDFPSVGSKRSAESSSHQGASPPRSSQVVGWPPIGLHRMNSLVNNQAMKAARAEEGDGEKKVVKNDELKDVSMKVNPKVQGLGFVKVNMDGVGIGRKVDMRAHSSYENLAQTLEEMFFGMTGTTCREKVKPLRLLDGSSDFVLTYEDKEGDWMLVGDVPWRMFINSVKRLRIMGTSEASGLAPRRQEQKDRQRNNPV
UniProt Q9ZSY8, sequence (whole entry, looked up): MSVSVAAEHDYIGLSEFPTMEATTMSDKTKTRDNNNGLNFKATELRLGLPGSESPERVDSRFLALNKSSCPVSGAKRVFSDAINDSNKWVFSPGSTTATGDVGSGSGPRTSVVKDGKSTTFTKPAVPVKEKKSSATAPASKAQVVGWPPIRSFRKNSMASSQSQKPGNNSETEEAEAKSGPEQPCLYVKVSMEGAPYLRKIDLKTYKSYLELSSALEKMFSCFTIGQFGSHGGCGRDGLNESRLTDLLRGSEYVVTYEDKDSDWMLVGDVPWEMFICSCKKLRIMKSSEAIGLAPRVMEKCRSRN

Set 1 — method: protein binding microarray; molecule type: double-stranded DNA, one strand shown; sample: in vitro; tested at: not given; baseline: not given; direction: higher = stronger binding; measurement: E-score
Target: Histone acetyltransferase KAT6A, winged helix 2, GST fusion (KAT6A, Homo sapiens, UniProt Q92794, residues 85-181)
Setting: 8-mer, flanks averaged, mean of 2 arrays, mostly near background
Construct (chain): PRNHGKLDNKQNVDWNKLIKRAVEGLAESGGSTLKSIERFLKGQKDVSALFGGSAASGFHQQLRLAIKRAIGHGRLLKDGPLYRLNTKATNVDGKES
CGCCGGCC: 0.17
CCCGGGTC: 0.178
TATCCAGA: 0.0401
CCATATGA: -0.083
AGGAACGA: -0.0982
TGCGTCCA: 0.156
GCAACAAC: 0.101
CACTCTGA: -0.0251
GTCGCACA: 0.0595
CAAAGCGC: 0.0664
ACCTGTCT: -0.134
CACACTCG: 0.0822
ATCTCAGG: -0.163
ACAACCGC: 0.0623
AGATGCAT: -0.0675
GGGCTGAC: 0.0425
CAAACGGG: 0.0221
CCTTCTAC: -0.0722

Set 2 — target: CEBPB, bZIP domain (human); method: DHFR protein complementation; sample: yeast; baseline: wild-type JUN-FOS pair; direction: higher = stronger binding; measurement: binding fitness
Setting: single substitutions, most at no-binding floor
Parent: JUN, bZIP domain (human); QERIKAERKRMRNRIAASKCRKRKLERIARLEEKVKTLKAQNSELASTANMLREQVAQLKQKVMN; partner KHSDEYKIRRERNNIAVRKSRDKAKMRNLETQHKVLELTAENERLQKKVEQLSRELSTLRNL
I28M: -1.16 natural log
V56F: -1.54 natural log
T48D: -1.54 natural log
A29D: -1.25 natural log
K39I: -1.35 natural log
A40T: -1.36 natural log
K39S: -1.37 natural log
R30G: -1.18 natural log
L38T: -1.5 natural log
A29S: -1.22 natural log
Q41D: -1.46 natural log
E54A: -1.26 natural log
R53Y: -1.25 natural log
A29T: -1.34 natural log
A29M: -1.42 natural log
V56H: -1.2 natural log
T37N: -1.24 natural log

Set 3 — Molecule: B1 (IAA6); method: two-hybrid; direction: higher = firmer interaction; measurement: positive tests
B1: IAA6 (Arabidopsis thaliana, UniProt Q38824); chain MAKEGLALEITELRLGLPGDNYSEISVCGSSKKKKRVLSDMMTSSALDTENENSVVSSVEDESLPVVKSQAVGWPPVCSYRRKKNNEEASKAIGYVKVSMDGVPYMRKIDLGSSNSYINLVTVLENLFGCLGIGVAKEGKKCEYIIIYEDKDRDWMLVGDVPWQMFKESCKRLRIVKRSDATGFGLQQD
ARF19 948-1086 (Arabidopsis thaliana, UniProt Q8RYC8); baseline: out of 4 tests: 0
IAA28 (Arabidopsis thaliana, UniProt Q9XFM0); baseline: out of 4 tests: 0
ARF7 1030-1164 (Arabidopsis thaliana, UniProt P93022); baseline: out of 4 tests: 0
ARF20 484-590 (Arabidopsis thaliana, UniProt Q9C7I9); baseline: out of 4 tests: 0
IAA31 (Arabidopsis thaliana, UniProt Q8H174); baseline: out of 2 tests: 0
IAA12 (Arabidopsis thaliana, UniProt Q38830); baseline: out of 4 tests: 0
IAA16 (Arabidopsis thaliana, UniProt O24407); baseline: out of 4 tests: 1
IAA27 (Arabidopsis thaliana, UniProt Q9ZSY8); baseline: out of 4 tests: 2

Set 4 — method: DHFR PCA, deep sequencing; sample: yeast; together with: (+)-ABA 0 µM; baseline: wild-type fitted maximum; direction: higher = stronger binding; measurement: relative binding score
Target: ABI1, truncated, D143A, DHFR fusion (Arabidopsis thaliana)
Setting: methotrexate growth selection, single substitutions
Parent: PYL1, truncated, DHFR fusion (Arabidopsis thaliana); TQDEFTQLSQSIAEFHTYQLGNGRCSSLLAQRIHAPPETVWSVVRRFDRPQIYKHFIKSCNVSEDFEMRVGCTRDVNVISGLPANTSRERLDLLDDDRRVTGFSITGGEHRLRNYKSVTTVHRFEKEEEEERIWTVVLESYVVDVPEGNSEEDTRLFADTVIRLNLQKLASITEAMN; partner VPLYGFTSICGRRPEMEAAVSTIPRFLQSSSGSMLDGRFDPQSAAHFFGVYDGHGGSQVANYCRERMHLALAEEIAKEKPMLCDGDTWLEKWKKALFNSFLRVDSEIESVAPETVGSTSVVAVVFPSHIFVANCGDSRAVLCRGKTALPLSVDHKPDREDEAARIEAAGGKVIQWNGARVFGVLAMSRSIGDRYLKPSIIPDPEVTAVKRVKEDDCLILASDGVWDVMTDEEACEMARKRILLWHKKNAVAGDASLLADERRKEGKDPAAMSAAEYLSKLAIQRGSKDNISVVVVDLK
I12Q: 3.68%
P36V: -0.681%
K126T: 49%
R132K: 44.3%
V142H: -5.41%
V136E: -20.9%
H16Y: 1.29%
H16C: -6.79%
E174G: -3.25%
L93N: 8.93%
V100L: 0.822%
E139S: 2.25%
V76E: 0.558%
E67W: 1.59%
D3V: 7.43%
R74Y: -1.75%

Set 5 — target: CCNE1, cyclin fold, Cln2 fusion (human); method: yeast growth competition, sequencing; sample: yeast; setting: weak parent motif; baseline: not given; direction: higher = stronger binding; measurement: normalised enrichment score
Parent: PKN2 docking peptide (human); VSAVQKLDFSDTM
RSAVQKLDFSDTM [V1R]: 0.536
VSAVQKHDFSDTM [L7H]: 0.366
VSAVQKLDESDTM [F9E]: -0.051
VSKVQKLDFSDTM [A3K]: -0.238
ASAVQKLDFSDTM [V1A]: 0.546
VSAVQKLDFSDTS [M13S]: 0.716
VSAQQKLDFSDTM [V4Q]: -0.128
VSAVQKLDFGDTM [S10G]: 0.709
VSAVQKLDFSDDM [T12D]: 0.46
VSAVQQLDFSDTM [K6Q]: 0.473
VSAWQKLDFSDTM [V4W]: -0.179
VSAVQKLDFSDTH [M13H]: 0.839
VSAVQKLDFDDTM [S10D]: 0.703
VSQVQKLDFSDTM [A3Q]: 0.318
VSAVQKLDFSDIM [T12I]: 0.729
MSAVQKLDFSDTM [V1M]: 0.435
VSAVQKLCFSDTM [D8C]: 0.433
VSAVQKIDFSDTM [L7I]: -0.601
VSAVQKLDFSDNM [T12N]: 0.414
VSAVQKLFFSDTM [D8F]: 0.823
VSAVQKLDWSDTM [F9W]: 0.0649
VSFVQKLDFSDTM [A3F]: 0.657
VSAVQKFDFSDTM [L7F]: 0.154
VSAVQKLKFSDTM [D8K]: 0.823
VHAVQKLDFSDTM [S2H]: 0.222

Set 6 — method: protein-binding microarray; molecule type: double-stranded DNA, one strand shown; sample: in vitro; tested at: 2540 nM top; setting: 60-bp whole probe; together with: salmon DNA 0.4 mg/ml; baseline: random background probes; direction: higher = stronger binding; measurement: fitted relative affinity; all sequences stand within: GCCTAGCAC … GTCTTGATTCGCTTGACGCTGCTG
Target: Interferon regulatory factor 3, full length, phosphomimetic (IRF3, Homo sapiens, UniProt Q14653, residues 1-427, S386D/S396D/S398D/S402D/T404D/S405D)
Construct (chain): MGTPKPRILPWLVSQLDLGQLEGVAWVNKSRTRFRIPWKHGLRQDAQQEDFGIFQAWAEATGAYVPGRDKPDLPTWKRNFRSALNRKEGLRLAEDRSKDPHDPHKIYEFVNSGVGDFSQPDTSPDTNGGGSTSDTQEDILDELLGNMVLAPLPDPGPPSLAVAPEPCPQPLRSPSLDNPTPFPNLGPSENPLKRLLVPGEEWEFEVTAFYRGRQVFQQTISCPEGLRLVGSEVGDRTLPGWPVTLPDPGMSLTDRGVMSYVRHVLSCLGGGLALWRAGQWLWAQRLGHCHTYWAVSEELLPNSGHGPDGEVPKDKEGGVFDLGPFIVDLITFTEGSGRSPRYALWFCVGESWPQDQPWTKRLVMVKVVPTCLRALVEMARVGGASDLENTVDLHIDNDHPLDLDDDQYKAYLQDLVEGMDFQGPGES
GACGGACTGGGGTATCAGGACGTGCTA: -0.411 z-score
TCAAGAAAGAAAACGGGGAGGTGCTAG: -0.267 z-score
GACGGACTGGGGTTTCGGGATGTGCTA: 0.745 z-score
TCATTATTTTTTTTATTACTGTGCTAG: 0.701 z-score
TTACGTATCGGGTATCGGTTAGTGCTA: 2.21 z-score
TTAGGTATCCTTTACCTTTAGTGCTAG: 3.76 z-score
GACGATTTCAGTATGGAGACGTGCTAG: 1.49 z-score
TCACTTATCCTTCCCCTACTGTGCTAG: 1.41 z-score
GGTATTATTTATTGTAGCCTCGTGCTA: 0.999 z-score
TTAGGACTGGGACTGGCTTAGTGCTAG: -0.993 z-score
TAAGGTTTCCTTATCCTTTAGTGCTAG: 7.91 z-score
GACGGTTTCGGGTATCGGGAAGTGCTA: 4.88 z-score
GTAGAACTGAGTATCGATTAGTGCTAG: 0.0948 z-score
GACGGTTTCCTTATCCTCACGTGCTAG: 7.71 z-score
TTAGATATCAGACTTGATTAGTGCTAG: 0.714 z-score
TCACTTTTCATGCTCTTACTGTGCTAG: 1.94 z-score
TGAGGTTTCGACTTTCGGTTAGTGCTA: 3.59 z-score
GACGGACTGGGGTATCGGGAAGTGCTA: -0.642 z-score
GACCATATCAGTATCGAGACGTGCTAG: 1.98 z-score
TCCATTTTCTAAATTCCCTAGTGCTAG: 3.07 z-score

Some of these lines once more (set 1):
CCATATGA: -0.083
AGGAACGA: -0.0982
TGCGTCCA: 0.156
GCAACAAC: 0.101
CACTCTGA: -0.0251
GTCGCACA: 0.0595
